Assay results from different studies.
A part holds a random share of what one study measured. Several values in a cell are separate wells, animals, samples, runs or records.

Sample 1
Target: Replicase polyprotein 1ab, nsp13 helicase (rep, Severe acute respiratory syndrome coronavirus 2, UniProt P0DTD1)
Mode: inhibitor
Concentration: 20 µM
The inhibition of `CC(C)C(=O)Nc1ccc([N+](=O)[O-])c(C(F)(F)F)c1` is reported as -1.84%.
`O=C(C[S+]([O-])C(c1ccccc1)c1ccccc1)NO` (centres unmarked) has an inhibition of 1.78%.
`O=C1c2ccccc2-c2c(NCCc3ccccc3)c(=O)[nH]c3cccc1c23` gave an inhibition of 9.68%.
For `CNCCCOc1cc(F)c(-c2c(Cl)nc3ncnn3c2N[C@@H](C)C(F)(F)F)c(F)c1`, the inhibition was 8.19%.
`O=c1c(-n2ccnn2)c[nH]n1-c1cc(N2CCOCC2)ncn1` gave an inhibition of -6.64%.
`CCn1c2ccccc2c2cc(CNCc3ccccc3OC)ccc21` gave an inhibition of 10.4%.
For `COC(=O)c1ccccc1-c1c2ccc(=N)cc-2oc2cc(N)ccc12`, the inhibition was -144%.
`N#Cc1ccc(N(Cc2ccc(Br)cc2)n2cnnc2)cc1` has an inhibition of -0.01%.
`CC(=O)NCCNc1cc(Cl)nn2c(-c3cccc(S(=O)(=O)N(C)C)c3)c(C)nc12` gave an inhibition of 9.09%.
For `CCCCC1=NC2(CCCC2)C(=O)N1Cc1ccc(-c2ccccc2-c2nnn[nH]2)cc1`, the inhibition was 11.8%.
With `C[C@]12CC[C@H](O)C[C@@H]1CC[C@@H]1[C@@H]2CC[C@]2(C)C(=O)CC[C@@H]12` the inhibition was 1.52%.
For `N#Cc1ccc(Cn2cncc2CN2CCN(c3cccc(Cl)c3)C(=O)C2)cc1`, the inhibition was 3.11%.
For `N#Cc1cc(-c2n[nH]c(-c3ccncc3)n2)ccn1`, the inhibition was -1.32%.
With `CCCC(C)NC(=O)c1ccc(Cl)c(Cl)c1` (centres unmarked) the inhibition was 2.52%.
For `COc1cc(N2CCC(N3CCN(C)CC3)CC2)ccc1Nc1ncc(Cl)c(Nc2ccccc2P(C)(C)=O)n1`, the inhibition was 13.6% and 5.3%.
The inhibition of `CCCN(CCC)C(=O)C1=Cc2ccc(-c3ccc(C(=O)N4CCCC4)cc3)cc2N=C(N)C1` is reported as 7.44%.
`CCC/C=C1\OC(=O)C2=C1CCC=C2` has an inhibition of 4.53%.
The inhibition of `NC(=O)c1[nH]cnc1O` is reported as -0.26%.
`O=c1c(O)c(-c2ccc(O)c(O)c2)oc2cc(O)cc(O)c12` gave an inhibition of 18.7%.
With `N#Cc1cc(NC(=O)C(=O)O)c(Cl)c(NC(=O)C(=O)O)c1` the inhibition was 7.38%.
`CCCN(CCC)[C@@H]1CCc2c(OC)cccc2[C@@H]1C` gave an inhibition of 2.08%.
The inhibition of `NC(=O)C1CCCc2c1[nH]c1ccc(Cl)cc21` (centres unmarked) is reported as -0.04%.
With `CCC(=N\O)/C(C)=C/c1ccc(F)cc1` the inhibition was 7.92%.
The inhibition of `NC[C@H]1O[C@H](O[C@H]2[C@H](O)[C@@H](O[C@H]3O[C@H](CO)[C@@H](O)[C@H](N)[C@H]3O)[C@H](N)C[C@@H]2N)[C@H](N)[C@@H](O)[C@@H]1O` is reported as 9.04%.

Sample 2
Target: Replicase polyprotein 1ab, main protease (rep, Severe acute respiratory syndrome coronavirus 2, UniProt P0DTD1)
Observed: enzyme activity
Mode: inhibitor
Concentration: 20 µM
Notes: primary screen
`O=C(N/N=C/c1ccc([N+](=O)[O-])o1)c1cc([N+](=O)[O-])cc([N+](=O)[O-])c1O` gave an inhibition of 63.8%.
With `COc1cc(C[C@@H]2NCCc3cc(O)c(O)cc32)cc(OC)c1OC` the inhibition was 73.9%.
`CCOC(=O)c1c(N)sc(-c2ccccc2)c1C` has an inhibition of 94.4%.
With `CC[N+](CC)(CC)CCOc1cccc(OCC[N+](CC)(CC)CC)c1OCC[N+](CC)(CC)CC` the inhibition was 35.3%.
The inhibition of `CN1CCN2c3c(cccc31)[C@@H]1CN(CCCC(=O)c3ccc(F)cc3)CC[C@@H]12` is reported as 36%.

Sample 3
Cell line: HEK-293T
Observed: pseudovirus infection
Method: FDA-approved drug library screen
Organism: VSV pseudotyped with SARS-CoV-2 spike
Concentration: 10 µM
Time: 16 h
Baseline: vehicle-treated
The GFP-positive cells of `CCOC(=O)CC(SP(=S)(OC)OC)C(=O)OCC` (centres unmarked) is reported as 122%.
With `N#C/C(=C1/SC[C@@H](c2ccc(Cl)cc2Cl)S1)n1ccnc1` the GFP-positive cells was 79%.
The GFP-positive cells of `CC(=O)N[C@@H](CS)C(=O)O` is reported as 68.8%.
For `C[N+](C)(C)CCOC(N)=O`, the GFP-positive cells was 98.1%.

Sample 4
Target: Sal-like protein 4, full length isoform A (SALL4, Homo sapiens, UniProt Q9UJQ4, residues 1-1053)
Chain of UniProt Q9UJQ4 (whole entry, looked up): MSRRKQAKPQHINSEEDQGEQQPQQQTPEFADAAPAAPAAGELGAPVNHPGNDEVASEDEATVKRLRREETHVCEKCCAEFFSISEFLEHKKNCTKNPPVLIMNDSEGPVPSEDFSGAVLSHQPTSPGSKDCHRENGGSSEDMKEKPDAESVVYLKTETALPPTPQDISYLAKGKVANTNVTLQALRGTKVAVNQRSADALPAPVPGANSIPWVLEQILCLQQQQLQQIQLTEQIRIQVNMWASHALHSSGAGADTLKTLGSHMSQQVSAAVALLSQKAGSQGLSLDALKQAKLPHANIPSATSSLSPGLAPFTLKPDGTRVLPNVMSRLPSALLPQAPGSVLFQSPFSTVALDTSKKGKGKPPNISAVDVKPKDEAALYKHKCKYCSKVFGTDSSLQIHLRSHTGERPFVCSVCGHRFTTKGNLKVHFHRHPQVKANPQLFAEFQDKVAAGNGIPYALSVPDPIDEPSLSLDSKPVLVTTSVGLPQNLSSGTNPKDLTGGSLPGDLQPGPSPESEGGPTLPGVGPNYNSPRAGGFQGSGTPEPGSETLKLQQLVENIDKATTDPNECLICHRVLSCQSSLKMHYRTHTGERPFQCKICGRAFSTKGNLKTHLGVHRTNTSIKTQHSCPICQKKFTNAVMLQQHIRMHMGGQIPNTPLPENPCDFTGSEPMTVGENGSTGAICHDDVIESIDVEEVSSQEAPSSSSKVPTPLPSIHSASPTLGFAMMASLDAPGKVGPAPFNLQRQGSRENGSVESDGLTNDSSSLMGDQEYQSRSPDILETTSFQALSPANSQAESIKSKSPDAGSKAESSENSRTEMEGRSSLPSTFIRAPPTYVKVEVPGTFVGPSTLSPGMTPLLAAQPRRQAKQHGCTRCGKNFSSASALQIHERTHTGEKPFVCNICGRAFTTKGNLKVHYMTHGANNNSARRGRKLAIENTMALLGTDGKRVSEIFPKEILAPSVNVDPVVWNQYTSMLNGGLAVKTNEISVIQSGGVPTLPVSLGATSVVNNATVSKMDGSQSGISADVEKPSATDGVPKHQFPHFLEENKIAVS
Method: universal PBM
Molecule type: double-stranded DNA, one strand shown
Medium: in vitro
Concentration: 600 nM
Notes: 8-mer, flanks averaged, mean of replicates
Reading: higher = stronger binding
`ACCCATGG` has an E-score of -0.337.
With `ACCAGACC` the E-score was -0.233.
For `ACGCACTG`, the E-score was -0.183.
For `CGACGGGC`, the E-score was -0.198.
With `AGCGGTCA` the E-score was -0.108.
`CGCACCTC` gave an E-score of -0.22.
`CCGCCCTA` gave an E-score of -0.124.
`ACCAATCT` has an E-score of 0.0181.

Sample 5
Target: RNA binding protein fox-1 homolog 2, RRM domain, GST-SBP tag (RBFOX2, Homo sapiens, UniProt O43251-10, residues 100-194)
Method: RNA Bind-n-Seq
Molecule type: RNA
Medium: in vitro
Concentration: 365 nM
Notes: natural RNA segment, single round, ends assumed
Baseline: no-protein control
Reading: higher = stronger binding
Construct (chain): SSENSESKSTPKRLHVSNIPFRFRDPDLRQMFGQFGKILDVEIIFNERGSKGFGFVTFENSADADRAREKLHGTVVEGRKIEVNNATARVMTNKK
`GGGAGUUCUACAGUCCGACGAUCUUGAUCGUUUGCUGCCAGCCCAGAAGGAUGAAGGAAAGAAGCACCUCACAGCUCCUUUCUAGGUCCUUCUUUCCUCAUUGGAAGCAAAGACCUAGCCAACAACAGCACCUUGGAAUUCUCGGGUGCCAA` — result for “RBNS enrichment (R)”: 0.273.
For `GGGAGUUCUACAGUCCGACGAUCUAUGUUUUUAGAGCAUGCAAUCUUAACUUUGUUAAACUAUUAUUAUUGAUCACAUUUUGAUUUUUUUCUCUCCACAUCAGGAUAGUUUACUGAAGCACAAUCUCUUAUACUGGAAUUCUCGGGUGCCAA`, “RBNS enrichment (R)” read 7.71.
`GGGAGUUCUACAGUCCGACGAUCAAUUUCCUCUGACCCAUGGGAAUGAAAAUACUUAAAUACUGUAAAGCAUAUCUAUUAAUAAUUCCCCCAAUUUUUUAAACUAACAAAAUGGAAUGUUAACUGAAUGGAAUUGGAAUUCUCGGGUGCCAA` — result for “RBNS enrichment (R)”: 0.635.
For `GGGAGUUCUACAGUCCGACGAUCACAGCGUGCUGUUCCGCAAGCAGCCGUUCCUGUGGCGCGCUGCACUGCUCUACUACACCAUCCACCGCGCCGCGCGCAUGUCCUUCCGUCAGCUCUUCCAGGACCUGGAGUGGAAUUCUCGGGUGCCAA`, “RBNS enrichment (R)” read 0.668.
For `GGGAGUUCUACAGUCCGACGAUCUGUUGACCAUGCAGGGAAGUGGCCAAUGUGCCCACUUCCCAUCUCUUCCUUGCGCAUUGUCAGCAUUUCUGAGUGAUUCACAGUGAUGUUUUAUGAUGGUUAGACUUCUGUGGAAUUCUCGGGUGCCAA`, “RBNS enrichment (R)” read 0.311.
For `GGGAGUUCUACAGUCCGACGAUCGUAUUUCUCUAGUGUAUUUAGUGUGUCGUCAAAAUUUUGAUUUAUACAGAGCUUUCAAGAACACACAAUGCAAAGUGAGCGCAGCAUAGCUGUUAACAAACAUACAACUUUGGAAUUCUCGGGUGCCAA`, “RBNS enrichment (R)” read 0.247.
For `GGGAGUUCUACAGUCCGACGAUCAUGGAAAUUAUUUUUCCAAAAUAAAGGAGAUAAAGUGCCAUCCCAAAACACACAGAUAUUAUUAGAGAGACUUUACUUUCUAGUGCUGGAAUAACCAUGGAGCAAAGAGAUGGAAUUCUCGGGUGCCAA`, “RBNS enrichment (R)” read 0.356.
For `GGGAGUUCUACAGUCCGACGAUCGAAUUCAGAUCUCAAUAUUAGGGAGAGUUCUCCUUUGAGCAACUCCUUUGCUUUCACACAGCAUAGCUUAUAAUUUGAUUAUGUUUCCUUCUUCAUGGGAAAUGUUAAAAUGGAAUUCUCGGGUGCCAA`, “RBNS enrichment (R)” read 0.367.

Sample 6
Target: Runt-related transcription factor 3, Runt domain (RUNX3, Homo sapiens, UniProt Q13761, residues 53-186)
Chain of UniProt Q13761 (53-186, looked up): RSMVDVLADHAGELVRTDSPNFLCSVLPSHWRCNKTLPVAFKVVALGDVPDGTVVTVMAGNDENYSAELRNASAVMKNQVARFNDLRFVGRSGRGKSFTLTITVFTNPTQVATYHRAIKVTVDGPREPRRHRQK
Method: protein-binding microarray
Molecule type: hairpin DNA
Medium: in vitro
Concentration: not given
Notes: whole hairpin DNA, median over replicate spots
Baseline: not given
Reading: higher = stronger binding
The median fluorescence of `GAGGCCTGTTGCGATTGGCCTCCTGGCCAATCGCAACAGGCCTCACACTC` is reported as 4710 a.u.
The median fluorescence of `GAGGCCTGTCGTGGTTGGCCTCCTGGCCAACCACGACAGGCCTCACACTC` is reported as 5370 a.u.
`GAGGCCTGTCGCTGTTGGCCTCCTGGCCAACAGCGACAGGCCTCACACTC` has a median fluorescence of 5080 a.u.
`GAGGCCCAACCGCACGAGCCTCCTGGCTCGTGCGGTTGGGCCTCACACTC (5mC at 15 29)` has a median fluorescence of 5850 a.u.

Excerpt of the above (sample 5):
`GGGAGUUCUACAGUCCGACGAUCUUGAUCGUUUGCUGCCAGCCCAGAAGGAUGAAGGAAAGAAGCACCUCACAGCUCCUUUCUAGGUCCUUCUUUCCUCAUUGGAAGCAAAGACCUAGCCAACAACAGCACCUUGGAAUUCUCGGGUGCCAA` — result for “RBNS enrichment (R)”: 0.273.
For `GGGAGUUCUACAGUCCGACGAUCUAUGUUUUUAGAGCAUGCAAUCUUAACUUUGUUAAACUAUUAUUAUUGAUCACAUUUUGAUUUUUUUCUCUCCACAUCAGGAUAGUUUACUGAAGCACAAUCUCUUAUACUGGAAUUCUCGGGUGCCAA`, “RBNS enrichment (R)” read 7.71.
`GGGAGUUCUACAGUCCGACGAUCAAUUUCCUCUGACCCAUGGGAAUGAAAAUACUUAAAUACUGUAAAGCAUAUCUAUUAAUAAUUCCCCCAAUUUUUUAAACUAACAAAAUGGAAUGUUAACUGAAUGGAAUUGGAAUUCUCGGGUGCCAA` — result for “RBNS enrichment (R)”: 0.635.
For `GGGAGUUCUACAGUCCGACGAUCACAGCGUGCUGUUCCGCAAGCAGCCGUUCCUGUGGCGCGCUGCACUGCUCUACUACACCAUCCACCGCGCCGCGCGCAUGUCCUUCCGUCAGCUCUUCCAGGACCUGGAGUGGAAUUCUCGGGUGCCAA`, “RBNS enrichment (R)” read 0.668.
